Experimental data of several laboratories.
Lines come from different studies, so protocols differ. “And” joins repeats or separate records; there may be more than shown. ± gives the spread as reported.
Sequence of UniProt P08684 (whole entry, looked up): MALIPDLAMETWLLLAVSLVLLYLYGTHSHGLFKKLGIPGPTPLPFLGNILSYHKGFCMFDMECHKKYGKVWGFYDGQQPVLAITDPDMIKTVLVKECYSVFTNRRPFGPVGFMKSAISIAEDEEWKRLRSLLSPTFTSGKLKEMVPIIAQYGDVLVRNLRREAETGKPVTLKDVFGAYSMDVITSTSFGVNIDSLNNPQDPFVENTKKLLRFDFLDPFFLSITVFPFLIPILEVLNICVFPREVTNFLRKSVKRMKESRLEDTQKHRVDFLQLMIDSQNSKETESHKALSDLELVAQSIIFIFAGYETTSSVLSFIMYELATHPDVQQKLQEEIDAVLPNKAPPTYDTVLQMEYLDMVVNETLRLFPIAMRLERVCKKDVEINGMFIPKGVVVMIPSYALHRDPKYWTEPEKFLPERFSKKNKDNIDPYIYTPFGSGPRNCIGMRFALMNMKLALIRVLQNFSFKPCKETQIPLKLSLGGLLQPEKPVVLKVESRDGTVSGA

| SMILES | target or system | test | test system | conditions | how to read | measurement | value |
| --- | --- | --- | --- | --- | --- | --- | --- |
| O=C(NN=Cc1ccc(C[n+]2ccccc2)cc1)c1ccc2ccc3ccc(C(=O)NN=Cc4ccc(C[n+]5ccccc5)cc4)nc3c2n1.[Br-].[Br-] | MYC parallel G4 DNA | FRET melting |  | 1 µM, DNA 0.2 µM, with: duplex DNA competitor 10 µM |  | ΔTm | 21.7 ± 0.3 °C |
| CCCCCCCC(=O)OC[C@H](COP(=O)(O)O[C@@H]1[C@H](O)[C@H](O)[C@@H](OP(=O)(O)O)[C@H](OP(=O)(O)O)[C@H]1O)OC(=O)CCCCCCC | Kv7.2/Kv7.3(EEE) mutant channel | channel open probability, activator, fitted PIP2 binding model |  | model 5, efficacy fixed to wild type | relative to: channel without bound PIP2 | efficacy factor E2 | 0.18 |
| CC[C@H](CO)N(CCN(N=O)[C@H](CC)CO)N=O | Salmonella typhimurium | plate incorporation | TA1535, water | 500 µg/plate, without S9 |  | revertant colonies per plate | 19.3 ± 6 |
| CC(C)[C@H](NC(=O)[C@@H](NC(=O)CCCc1cn(CC(O)CN2CCN(CC(=O)O)CCN(CC(=O)O)CCN(CC(=O)O)CC2)nn1)[C@@H](C)O)C(=O)N[C@@H](CCCNC(=N)N)C(=O)N[C@H](C(=O)N[C@@H](CO)C(=O)N[C@@H](C)C(=O)N[C@@H](CC(=O)O)C(=O)O)[C@@H](C)O (some centres unmarked) |  |  | healthy male humans, plasma | intravenous bolus, 0.08 mmol/kg |  | terminal half-life | 2.69 ± 0.19 h |
| COc1cc(/C=C/C(=O)CC(=O)/C=C/c2ccc(O)c(OC)c2)ccc1O | 17β-HSD (human) | androstenedione formation | LS180 | 100 µM |  | inhibition | inhibited |
| C[n+]1cccc2cc(C=NNC(=O)c3ccc4ccc5ccc(C(=O)NN=Cc6ccc7c(ccc[n+]7C)c6)nc5c4n3)ccc21.[I-].[I-] | myc22 MYC G4-DNA parallel | FRET melting |  | 1 µM, K1 buffer, DNA 0.2 µM, with: ds26 10 µM |  | ΔTm | 27.8 ± 2.7 °C |
| O=C(O)c1cc(O)c2c(c1)C(=O)c1cccc(O)c1C2=O | HK-2 co-cultured with HepaRG | MTT |  | 66.67 µM, 48 h | relative to: untreated control | viability | 45.8 ± 4.09% |
| O=C(O)c1ccc2c(c1)nc(NCCc1cccc(F)c1)c1ncncc12 | DYRK and HIPK kinases | enzyme activity, inhibitor, eight-kinase enzymatic panel |  | 1 µM, percent of control below 10 |  | number of kinases inhibited | 1 |
| CN1C[C@H](COc2nccc3c(NCc4ccco4)cc(Cl)nc23)OC1=O | alpha-galactosidase A (GLA) human | activator | Fabry disease iPSC-derived cardiomyocytes | 1 µM | relative to: wild type | enzyme activity | 9.2% |
| Oc1ccccc1-c1n[nH]cc1-c1ccnc2ccccc12 | IRE1 (Candida albicans) | kinase binding, MIB/MS competition | Candida albicans lysate | 1 µM | relative to: DMSO | log2 fold change | -0.01 |
| O=C(O)c1ccc2c(c1)nc(NCCc1cccc(F)c1)c1ccncc12 | DYRK and HIPK kinases | enzyme activity, inhibitor, eight-kinase enzymatic panel |  | 1 µM, percent of control below 10 |  | number of kinases inhibited | 5 |
| Cl.Fc1ccc(Nc2nc(NCC3CCCO3)c3ccccc3n2)cc1 (centres unmarked) | Renilla luciferase reporter mRNA | in vitro translation, inhibitor | Trypanosoma cruzi translation extract | 5 µM |  | inhibition | 20.9% |
| CC[C@H](C)[C@H](NC(=O)[C@H](CC(=O)O)NC(=O)[C@H](CCC(=O)O)NC(=O)[C@@H](N)CC(N)=O)C(=O)N[C@@H](CC(=O)O)C(=O)N[C@@H](CCC(N)=O)C(=O)N[C@@H](CCSC)C(=O)N[C@@H](Cc1ccccc1)C(=O)N[C@@H](CO)C(=O)N[C@H](C(=O)N[C@@H](CC(C)C)C(=O)N[C@@H](CC(C)C)C(=O)NCC(=O)N[C@@H](CCC(=O)O)C(=O)N[C@@H](CCSC)C(=O)N[C@@H](CC(=O)O)C(=O)N[C@@H](CC(C)C)C(=O)N[C@@H](CC(C)C)C(=O)N[C@H](C(=O)N[C@@H](CCC(N)=O)C(=O)N[C@@H](CO)C(=O)O)[C@@H](C)O)[C@@H](C)O | talin head domain | inhibitor, PAC-1 flow cytometry | CHO-A5 expressing GFP-talin head domain | 100 µM, 30 min, 37 °C |  | integrin αIIbβ3 activation | no inhibition |
| O=C(O)c1ccc2c(c1)nc(NCc1ccccc1)c1ccncc12 | DYRK and HIPK kinases | enzyme activity, inhibitor, eight-kinase enzymatic panel |  | 1 µM, percent of control below 10 |  | number of kinases inhibited | 0 |
| c1coc(-c2n[nH]cc2-c2ccnc3ccccc23)c1 | KSP1 (Candida albicans) | kinase binding, MIB/MS competition | Candida albicans lysate | 1 µM | relative to: DMSO | log2 fold change | -0.17 |
| C[C@@H](c1ccc(-n2cnc3c(N)ncnc32)cc1)N1CCc2nn(C)c(Cc3ccccc3)c2C1=O | FLT3 ITD D835V | KINOMEscan |  | 100 nM | relative to: DMSO | remaining binding | 74% |
| O=C(O)c1ccc2c(c1)nc(Nc1ccc(Cl)cc1)c1ccncc12 | DYRK and HIPK kinases | enzyme activity, inhibitor, eight-kinase enzymatic panel |  | 1 µM, percent of control below 10 |  | number of kinases inhibited | 5 |
| COc1cc2c(c(O)c1OC)C(=O)c1c(cc(C)c(O[C@@H]3O[C@H](CO)[C@@H](O)[C@H](O)[C@H]3O)c1OC)C2=O | HK-2 co-cultured with HepaRG | MTT |  | 133.33 µM, 48 h | relative to: untreated control | cell viability | 84 ± 5.74% |
| CN(C)c1nccc(-c2cnc3ncccn23)n1 | FLT3 ITD human | KINOMEscan binding |  | 1000 nM | relative to: control | remaining binding | 100% |
| Cn1cc(-c2ccc(-c3cncc(Cl)c3N3CCC4(CCNC4=O)CC3)cc2)cn1 | COLO 205 | gene expression, microarray, item: TLE1 mRNA |  | concentration not given, 6 h | relative to: untreated cells | log2 fold change | 2.57 |
| CCNC(=O)/C=C/c1cccc(Br)c1 | endogenous leucine transporters hamster | inhibitor, L-[14C]leucine uptake | CHO-BC cells | 30 µM, sodium-free |  | L-leucine uptake | 34 nmol/6 min/mg protein and 35.8 nmol/6 min/mg protein and 35.5 nmol/6 min/mg protein |

| SMILES | target or system | test | test system | conditions | how to read | measurement | value |
| --- | --- | --- | --- | --- | --- | --- | --- |
| CC(C)c1noc2ncc(C(=O)c3ccccc3O)cc12 | human Kv7.1 | ion current, whole-cell patch-clamp |  | 10 µM |  | inhibition | 16.4% |
| COc1cccc(Nc2nc3cc(C(=O)O)ccc3c3cnccc23)c1 | DYRK and HIPK kinases | enzyme activity, inhibitor, eight-kinase enzymatic panel |  | 1 µM, percent of control below 10 |  | number of kinases inhibited | 5 |
| Cc1ncc(C[n+]2csc(CCO[P@](=O)(O)OP(=O)(O)O)c2C)c(N)n1 | SAR11_0797 Candidatus Pelagibacter ubique | differential scanning fluorimetry |  | concentration not given, unit not given | higher = stronger binding | ΔTm | 2.07 |
| COc1ccc(F)cc1C(=O)NCc1ccc(-c2nn([C@@H](C)C(F)(F)F)c(N)c2C(N)=O)cc1 | PLCγ2 human | PLCγ2 phosphorylation, item: PLCγ2 Y1217 | Ramos RA1 |  |  | IC50 | 9.1 nM |
| Clc1nc(NCc2ccco2)c2[nH]cnc2n1 | alpha-galactosidase A (GLA) human | activator | Fabry disease iPSC-derived cardiomyocytes | 10 µM | relative to: wild type | enzyme activity | 8.5% |
| O=C(O)c1ccc2c(c1)nc(Nc1ccc3ccccc3c1)c1ncncc12 | DYRK and HIPK kinases | enzyme activity, inhibitor, eight-kinase enzymatic panel |  | 1 µM, percent of control below 10 |  | number of kinases inhibited | 6 |
| CN(C)c1ncc(F)c(-c2cnn3ncccc23)n1 | FLT3 ITD human | KINOMEscan binding |  | 1000 nM | relative to: control | remaining binding | 100% |
| Cl.OCCNc1nc(Nc2ccccc2)nc2ccccc12 | Renilla luciferase reporter mRNA | in vitro translation, inhibitor | Trypanosoma cruzi translation extract | 20 µM |  | inhibition | 49.3% |
| CC(C)C[C@H](NC(=O)C[C@H](O)[C@H](CC(C)C)NC(=O)[C@H](Cc1c[nH]cn1)NC(=O)CNC(=O)[C@@H](NC(=O)[C@H](C)NC(=O)[C@H](Cc1c[nH]c2ccccc12)NC(=O)[C@H](CCC(N)=O)NC(=O)[C@@H](Cc1ccccc1)NC(=O)COCCOCCNC(=O)CCC(C(=O)O)N1CCN(CC(=O)O)CCN(CC(=O)O)CCN(CC(=O)O)CC1)C(C)C)C(N)=O (some centres unmarked) [lutetium-177 labelled] |  |  | BALB/c nu/nu mice, female, skin | 100 pmol, 30 min, time course 0.5 h, with: PA 300 µg |  | tissue uptake | 1.6 ± 0.4 %ID/g |
| Fc1ccccc1Nc1nc(NCC2CCCO2)c2ccccc2n1 (centres unmarked) | Renilla luciferase reporter mRNA | in vitro translation, inhibitor | Trypanosoma cruzi translation extract | 30 µM |  | inhibition | 61.9% |
| CC1CCCN1c1nccc(-c2cnn3ncccc23)n1 (centres unmarked) | FLT3 ITD human | KINOMEscan binding |  | 1000 nM | relative to: control | remaining binding | 100% |
| O=C(O)c1ccc2c(c1)nc(NCCc1ccccc1)c1ncncc12 | DYRK and HIPK kinases | enzyme activity, inhibitor, eight-kinase enzymatic panel |  | 1 µM, percent of control below 10 |  | number of kinases inhibited | 1 |
| CC[C@H]1[C@@H](O)[C@@H]2[C@H](CC[C@]3(C)[C@@H]([C@H](C)CCNC(=O)NS(=O)(=O)c4ccc(C(C)(C)C)cc4)CC[C@@H]23)[C@@]2(C)CC[C@@H](O)C[C@@H]12 | Cytochrome P450 3A4 (CYP3A4, Homo sapiens, UniProt P08684) | substrate | human, plasma | 10 mg, alone, study day 1 |  | elimination rate constant mean | 0.0674 h⁻¹ |
| Cc1cnn2ncc(-c3ccnc(N(C)C)n3)c2c1 | FLT3 ITD human | KINOMEscan binding |  | 1000 nM | relative to: control | remaining binding | 82% |
| C=CC(=O)N1CCC(C(=O)NCC(=O)N2CCN(c3nc(-c4cnc(N)nc4C(F)F)nc(N4CCOCC4)n3)CC2)CC1 | FLT3 ITD/D835V | KINOMEscan |  | 1 µM | relative to: vehicle | remaining binding | 87% |
| O=C(O)c1ccc2c(c1)nc(NCCc1ccccc1)c1ccncc12 | DYRK and HIPK kinases | enzyme activity, inhibitor, eight-kinase enzymatic panel |  | 1 µM, percent of control below 10 |  | number of kinases inhibited | 5 |
| C[S+](C)CCC(=O)[O-] | SAR11_0797 Candidatus Pelagibacter ubique | differential scanning fluorimetry |  | concentration not given, unit not given | higher = stronger binding | ΔTm | 2.34 |
| COc1cccc(Nc2nc(NCC3CCCO3)c3ccccc3n2)c1.Cl (centres unmarked) | Renilla luciferase reporter mRNA | in vitro translation, inhibitor | Trypanosoma cruzi translation extract | 10 µM |  | inhibition | 16% |
| F[C@@H]1CCN(c2nccc(-c3cnn4ncccc34)n2)C1 | FLT3 ITD human | KINOMEscan binding |  | 1000 nM | relative to: control | remaining binding | 100% |
| CC(Nc1nc(N2CCCC2)nc2ccccc12)c1ccccc1 (centres unmarked) | transportin-1/2 | FUS nuclear import, high content imaging | HeLa Kyoto reporter | 1.58 µM, 2 h |  | cells with nuclear reporter | 94.8% |

For quick reference, copied from above:
| SMILES | target or system | test | test system | conditions | how to read | measurement | value |
| --- | --- | --- | --- | --- | --- | --- | --- |
| CC1CCCN1c1nccc(-c2cnn3ncccc23)n1 (centres unmarked) | FLT3 ITD human | KINOMEscan binding |  | 1000 nM | relative to: control | remaining binding | 100% |
| O=C(O)c1ccc2c(c1)nc(Nc1ccc(Cl)cc1)c1ccncc12 | DYRK and HIPK kinases | enzyme activity, inhibitor, eight-kinase enzymatic panel |  | 1 µM, percent of control below 10 |  | number of kinases inhibited | 5 |
| CC(C)C[C@H](NC(=O)C[C@H](O)[C@H](CC(C)C)NC(=O)[C@H](Cc1c[nH]cn1)NC(=O)CNC(=O)[C@@H](NC(=O)[C@H](C)NC(=O)[C@H](Cc1c[nH]c2ccccc12)NC(=O)[C@H](CCC(N)=O)NC(=O)[C@@H](Cc1ccccc1)NC(=O)COCCOCCNC(=O)CCC(C(=O)O)N1CCN(CC(=O)O)CCN(CC(=O)O)CCN(CC(=O)O)CC1)C(C)C)C(N)=O (some centres unmarked) [lutetium-177 labelled] |  |  | BALB/c nu/nu mice, female, skin | 100 pmol, 30 min, time course 0.5 h, with: PA 300 µg |  | tissue uptake | 1.6 ± 0.4 %ID/g |
| Oc1ccccc1-c1n[nH]cc1-c1ccnc2ccccc12 | IRE1 (Candida albicans) | kinase binding, MIB/MS competition | Candida albicans lysate | 1 µM | relative to: DMSO | log2 fold change | -0.01 |
| CCNC(=O)/C=C/c1cccc(Br)c1 | endogenous leucine transporters hamster | inhibitor, L-[14C]leucine uptake | CHO-BC cells | 30 µM, sodium-free |  | L-leucine uptake | 34 nmol/6 min/mg protein and 35.8 nmol/6 min/mg protein and 35.5 nmol/6 min/mg protein |
| Cl.OCCNc1nc(Nc2ccccc2)nc2ccccc12 | Renilla luciferase reporter mRNA | in vitro translation, inhibitor | Trypanosoma cruzi translation extract | 20 µM |  | inhibition | 49.3% |
| CN(C)c1ncc(F)c(-c2cnn3ncccc23)n1 | FLT3 ITD human | KINOMEscan binding |  | 1000 nM | relative to: control | remaining binding | 100% |
